Assay results from different studies.
Lines come from different studies, so protocols differ. Values joined by “and” are separate records of one study, mostly repeats; a detail may differ. Numbers after ± are the reported error. Values after ≈ are worked out from the molar mass of the structure shown.

The fluorescein ingestion of `CCCCCC[C@H]1C(=O)O[C@H](C)[C@H](NC(=O)c2cccc(NC=O)c2O)C(=O)O[C@@H](C)[C@@H]1OC(=O)CC(C)C` is reported as -30.5% (Drosophila melanogaster; fluorescence; liquid food, 40 µg/mL, first instar larvae; baseline: solvent).
`CSC1=NC[C@]2(S1)C(=O)Nc1ccccc12` gave an IC50 of 16.1 µM (Trypanosoma cruzi; [3H]uracil incorporation; amastigotes in rat L6E9 myoblasts; 72 h).
`CCCCCCCCCCCc1c([N+](=O)[O-])oc2ccc3ccccc3c12` has an MIC90 of over 32 µg/mL (Mycobacterium marinum; REMA; ATCC BAA-535).
The mortality of `CCCCc1ccc(CNc2nc(N(C)C)nc(N(C)C)c2/N=N/c2ccc(Cl)cc2)cc1` is reported as 76.7% (Plutella xylostella; leaf dipping; 25 mg/L).
For `Cl.N=C(CC(O)c1cc2c(F)cc(F)cc2c2cc(C(F)(F)F)ccc12)Nc1ccc(F)c(F)c1` (centres unmarked), the parasitemia reduction was 99.8% (Plasmodium berghei; Peters suppressive test; ANKA, infected mice; oral, 4 x 30 mg/kg, day 4; baseline: untreated control).
`COC1=CC(c2ccc[nH]2)=N/C1=C\c1[nH]c(Cc2ccc(OC(F)(F)F)cc2)cc1Cc1ccc(OC(F)(F)F)cc1`: “parasite load reduction” 98.9% (Plasmodium berghei; bioluminescence; mice; oral, 20 mg/kg/day, 72 h; baseline: vehicle).
`C/C(=C\C=C\[C@]1(C)[C@@H](O)CC[C@@]2(C)[C@H]1CC[C@H]1Cc3c([nH]c4cc5c(cc34)C3=CC(C)(C)OC(C)(C)[C@H]3C5)[C@@]12C)C(=O)O` gave a motility of 6.9 ± 2% (Brugia malayi; adult female worms; 10 µM, 144 h).
`C[C@H]1COCCN1c1nc(NCc2cccnc2C(F)(F)F)c2cccnc2n1` — result for “maximum microfilaria count”: 2600 microfilariae per mouse (Brugia malayi; SCID mouse, peritoneal cavity; dose not given, 6 weeks post-treatment, dosing x14d).
`CN(C)c1nc(NCc2cccc(C(F)(F)F)c2)c(/N=N/c2ccc(Cl)cc2)c(N(C)C)n1` gave a mortality of 70 ± 5.3% (Plutella xylostella; leaf dipping; 200 mg/L, 96 h).
`Cn1cc(NC(=O)c2cc(NC(=O)CN=C(N)N)cn2C)cc1C(=O)NCCC(=N)N` gave a DNA area of 1.52 µm² and 1.53 µm² and 1.8 µm² (Bacillus subtilis; bacterial cytological profiling; ATCC 6633; concentration not given).
For `CC[C@H](C)[C@H](NC(=O)[C@H](C)NC(=O)[C@H](CCCCN)NC(=O)[C@H](CC(C)C)NC(=O)[C@H](C)NC(=O)[C@@H](NC(=O)[C@H](Cc1c[nH]cn1)NC(=O)[C@H](CC(C)C)NC(=O)[C@@H](NC(=O)[C@@H](NC(=O)[C@H](CCCCN)NC(=O)[C@H](C)NC(=O)[C@H](C)NC(=O)[C@H](CO)NC(=O)[C@H](CCCCN)NC(=O)[C@H](Cc1ccccc1)NC(=O)[C@@H](NC(=O)[C@H](CCCCN)NC(=O)[C@H](CC(C)C)NC(=O)[C@H](Cc1ccccc1)NC(=O)[C@H](CO)NC(=O)[C@H](CCCCN)NC(=O)[C@H](Cc1c[nH]c2ccccc12)NC(=O)[C@H](CCCCN)NC(C)=O)[C@@H](C)O)[C@@H](C)O)C(C)C)[C@@H](C)O)C(=O)N[C@@H](CO)C(=O)N[C@@H](CO)C(N)=O`, the MBC90 was 16 µg/mL (≈ 5.45 µM) (Streptococcus pyogenes; ATCC 19615; 1 strain).
With `CNC(=O)c1cc(Cl)cc(C)c1NC(=O)c1cc(Br)nn1-c1ncccc1Cl` the mortality was 92.3% (Plutella xylostella; larvicidal activity; Raphanus sativus open field; 25 ppm, 72 h, wettable granule formulation).
For `CC(C)(C)NC(=O)[C@@H](N)Cc1ccc(OP2(=O)CO[C@@H](Cn3ccc(N)nc3=O)CO2)cc1` (some centres unmarked), the IC50 was 0.1 µM (human cytomegalovirus; viral replication).
`Cn1c(=O)ccc2ccc(F)c(CCNC[C@H]3CN(c4cnc5c(n4)NC(=O)CO5)C(=O)O3)c21` has an MIC90 of under 0.015 µg/mL (Neisseria gonorrhoeae).
For `CC1(C)SC2C(NC(=O)C(NC(=O)C3=C(O)C(Cc4ccsc4)NC3=O)c3ccccc3)C(=O)N2C1C(=O)O` (centres unmarked), “zone of inhibition” read 13 mm (Escherichia coli; ΔtolC JW5503-1; 200 µM, with: 30 µg/mL 2,2'-bipyridyl).
`COc1ccc2ccc3oc([N+](=O)[O-])cc3c2c1Br` gave an MIC90 of 0.0625 µg/mL (≈ 0.194 µM) (Mycobacterium marinum; REMA; ATCC BAA-535).
`CC(C)[C@H](NC(=O)[C@H](CCCNC(=N)N)NC(=O)[C@H](Cc1c[nH]c2ccccc12)NC(=O)[C@H](CCCNC(=N)N)NC(=O)[C@H](Cc1c[nH]c2ccccc12)NC(=O)[C@H](Cc1c[nH]c2ccccc12)NC(=O)[C@H](Cc1c[nH]c2ccccc12)NC(=O)[C@H](CCCNC(=N)N)NC(=O)[C@H](Cc1c[nH]c2ccccc12)NC(=O)[C@H](CCCNC(=N)N)NC(=O)CN)C(N)=O` has an MIC of 32 µM (≈ 55.3 µg/mL) (Candida albicans; broth microdilution; CGMCC 2.209, RPMI 1640-MOPS; 48 h, 30 °C, with: FeCl3 4 µM).
With `O=C(NNc1cc(F)ccc1F)c1nnc(CC23CC4CC(CC(C4)C2)C3)o1` the inhibition was 100% (Botryosphaeria dothidea; fungal growth, inhibitor; 50 µg/mL).
Under “mean survival time”, `Cl.N=C(CC(O)c1cc2c(F)cc(F)cc2c2cc(C(F)(F)F)ccc12)Nc1ccc(Br)cc1` (centres unmarked) is recorded as 14 days (Plasmodium berghei; Peters test; ANKA, mice; oral, 4 x 3 mg/kg).
The MBC of `N=C(N)NCCC[C@H](NC(=O)[C@@H](N)CCCNC(=N)N)C(=O)N[C@@H](Cc1c[nH]c2ccccc12)C(=O)N[C@@H](Cc1c[nH]c2ccccc12)C(=O)N[C@@H](CCC(N)=O)C(=O)N[C@@H](Cc1ccccc1)C(=O)N[C@@H](CCC(N)=O)C(=O)N[C@@H](Cc1ccccc1)C(=O)N[C@@H](CCCCN)C(N)=O` is reported as 9.7 µM (Bacillus subtilis).
With `COC(=O)N[C@H](C(=O)N1CCC[C@H]1c1ncc(-c2ccc(-c3ccc(-c4cnc([C@@H]5CCCN5C(=O)[C@@H](NC(=O)OC)C(C)C)[nH]4)cc3)cc2)[nH]1)C(C)C` the combination index was 0.56 (Hepatitis C virus; replicon cells; 90% effect level, with: NS5B palm site II inhibitor, ratio 2.5:1).
`CS(=O)(=O)CCCn1c(Cn2c(=O)n(CC(F)(F)F)c3ccncc32)cc2cc(Cl)ccc21`: “LS mean difference vs placebo” -1.78 log10 copies/mL (respiratory syncytial virus; RT-qPCR; hospitalized infants 1-24 months, nasal swab; oral, 6, 4.5 or 3 mg/kg daily, day 6, mid dose by age cohort; baseline: placebo).
With `O=[N+]([O-])c1cc2c(ccc3c4cc([N+](=O)[O-])oc4ccc23)o1` the MIC90 was 1 µg/mL (≈ 3.35 µM) (Mycobacterium marinum; REMA; ATCC BAA-535).
`CSCC[C@H](NC(=O)[C@H](CCCCN)NC(=O)[C@H](CCSC)NC(=O)[C@H](CCCCN)NC(=O)[C@H](CC(C)C)NC(=O)[C@H](CC(C)C)NC(=O)[C@H](CCCNC(=N)N)NC(=O)[C@H](CC(=O)O)NC(=O)[C@H](CCCCN)NC(=O)[C@H](Cc1c[nH]c2ccccc12)NC(=O)[C@H](Cc1ccc(O)cc1)NC(=O)[C@H](Cc1ccccc1)NC(=O)[C@H](CCCNC(=N)N)NC(=O)[C@@H]1CCCN1C(=O)[C@@H](NC(=O)[C@H](CCCNC(=N)N)NC(=O)[C@@H](N)CO)C(C)C)C(=O)N[C@@H](C)C(=O)O` has an MBC of 128 µg/mL (Micrococcus luteus; NCTC 2665).
For `Cl.N/C(CC(O)c1cc2c(F)cc(F)cc2c2cc(C(F)(F)F)ccc12)=N\c1ccc(F)cc1` (centres unmarked), the parasitemia reduction was 99.8% (Plasmodium berghei; Peters suppressive test; ANKA, infected mice; oral, 4 x 50 mg/kg, day 4; baseline: untreated control).
For `Nc1ncnc2c1ncn2[C@@H]1O[C@@H]2COP(=O)(O)O[C@H]3[C@@H](O)[C@H](n4cnc5c(=O)[nH]cnc54)O[C@@H]3COP(=O)(O)O[C@H]2[C@H]1O`, the fold enrichment was 2.95 (West Nile virus; RNA sequencing, measured: development, nervous system, R-HSA-9675108; HFF-1 cells; concentration not given, downregulated pathway; baseline: WNV-infected untreated cells).
With `CS(=O)(=O)OCCN(CCBr)c1c(C(=O)NCCO)cc([N+](=O)[O-])cc1[N+](=O)[O-]` the IC50 was 67.2 µM (Homo sapiens; cell viability, resazurin or CellTiter-Glo; sample D BCP-ALL PDX cells, ex vivo).
`O=C(NNc1ccc(Cl)c(Cl)c1)c1nnc(C23CC4CC(CC(C4)C2)C3)o1` gave an inhibition of 100% (Botryosphaeria dothidea; fungal growth, inhibitor; 50 µg/mL).
`Cc1c2c(nn1C)CSCc1cc(n(C)n1)CSc1cc(c3ccccc3c1)OCCCc1c(C(=O)O)n(C)c3c-2c(Cl)ccc13` — result for “log2 fold change”: -5.09 (Staphylococcus aureus; label-free quantitative proteomics, measured: SAOUHSC_02073 protein; SA113; concentration not given; baseline: untreated control).

A few entries again:
With `O=C(NNc1cc(F)ccc1F)c1nnc(CC23CC4CC(CC(C4)C2)C3)o1` the inhibition was 100% (Botryosphaeria dothidea; fungal growth, inhibitor; 50 µg/mL).
With `O=[N+]([O-])c1cc2c(ccc3c4cc([N+](=O)[O-])oc4ccc23)o1` the MIC90 was 1 µg/mL (≈ 3.35 µM) (Mycobacterium marinum; REMA; ATCC BAA-535).
For `CC(C)(C)NC(=O)[C@@H](N)Cc1ccc(OP2(=O)CO[C@@H](Cn3ccc(N)nc3=O)CO2)cc1` (some centres unmarked), the IC50 was 0.1 µM (human cytomegalovirus; viral replication).
`CSC1=NC[C@]2(S1)C(=O)Nc1ccccc12` gave an IC50 of 16.1 µM (Trypanosoma cruzi; [3H]uracil incorporation; amastigotes in rat L6E9 myoblasts; 72 h).
`Cn1c(=O)ccc2ccc(F)c(CCNC[C@H]3CN(c4cnc5c(n4)NC(=O)CO5)C(=O)O3)c21` has an MIC90 of under 0.015 µg/mL (Neisseria gonorrhoeae).
